Measurements of several laboratories.
Every numbered part comes from another study and shows a few of its results, in no order.

Series 1 — technique: RNA Bind-n-Seq; form: RNA; medium: in vitro; concentration: not given; reference: input RNA pool; reading: higher = stronger binding; quantity: bound/input enrichment
Target: RING finger protein unkempt homolog, zinc fingers 1-6, GST-SBP tag (UNK, Homo sapiens, UniProt Q9C0B0, residues 30-357)
Setting: RNA with constant flanks, human-mouse chimeric sites, ends assumed
All sequences stand within: GGGAGUUCUACAGUCCGACGAUC … CAACAGAGGAUUGAGCAUCA
Construct (chain): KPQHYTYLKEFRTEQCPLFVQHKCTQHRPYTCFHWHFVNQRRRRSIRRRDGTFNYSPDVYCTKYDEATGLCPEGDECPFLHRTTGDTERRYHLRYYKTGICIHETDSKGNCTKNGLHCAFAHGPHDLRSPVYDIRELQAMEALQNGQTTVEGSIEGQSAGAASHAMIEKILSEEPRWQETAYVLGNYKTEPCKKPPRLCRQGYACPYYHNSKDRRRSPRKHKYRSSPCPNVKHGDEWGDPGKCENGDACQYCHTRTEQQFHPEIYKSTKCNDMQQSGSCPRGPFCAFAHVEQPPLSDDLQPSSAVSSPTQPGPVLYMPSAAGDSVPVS
AUGGAGAAGGAUUCUCUGCCCCGCUUUGUGCGCUCUGAAUUUUAUAAGGAGCUAAUCAAGUAGUCAUUUAGCCAGGCUUCCAAAAGUUGCCCUGUGAUAUUUCCUCCAUCCUUUGUAGCA: 1.81 ratio
CAGGGCAUUAUUUCUCGUGCUGUUAGACACCUUUUUAAGAGUAUUGAUGAGAAAAAGACCUCAGCGAUUAAAAACGGGCUGCCCCCUCCUGAAUUCAAAGUGAAUGCCCAGUUCCUAGAG: 0.27 ratio
AGAGAAAUGAGAAAGAAUCUCACACAAGAAGAGAUGCAAAGAAUGUCUACUAGAGUCCUUUUGGCGACUCUUUCCAUUCCUAUUACUCCUGAGCGUACUGAUAUUGCUCGACUUUUGGAU: 0.0928 ratio
AAAUUUCCCCUCCUGAGACCUCCUCCGAAGUUGGAGUCUCUUACAGAUGCCUCAUCCCCUGUUAGCGUUUUGGUCUGGACCACCCAGCCUUGGACAAUUCCCGCCAACCAGGCAAUUUGC: 0.38 ratio
CUUUUUAAGAAGAUAUGUGAUGGGAUCUUUUAUACCCCUCAAUAUUUAAAUCCUUCUGUAAUCAGCCUUUUGAAACAUAUGCUGCAGGUGGAUCCCAUGAAGAGGGCCGCAAUAAAAGAU: 0.326 ratio
GGCUGCUACUAUUCUCCCUGGAGUGGCUGGAGUUCCCGCCGGAGCGCGCGCAGGUUAAUUUUAGAAAAUGCCAAGUAGGAAGUUUGUUGAGGGUGAAGUGGUCAGAGGCCGAUGGCCUGG: 3.51 ratio
UUCAAAGAAAAGGGCAGCUGUGUCAUUUCAUAAGUAACUCUGGGGGAGGGAAAUUCUGUUCUUUUGUUUAAUUUUCCCCCAGAUAAAGCCAAAGUGUGUGUUGAAGAACUGAGAAAAAAU: 0.183 ratio
CUUCGGAAAAAAAAAUUACCUUUUCUGACAGUGCUUUCCCUCCCAUAGAUCCACGUUCAAGCUCAAAGAGCAAAGGCUUUGCACGGAUCUGAUGAUGCUGAUGAAGAAAGAUUUCUGAGA: 0.218 ratio

Series 2 — technique: RNAcompete; form: RNA; medium: in vitro; concentration: 20 nM; setting: 7-mer, probes averaged, single round; reference: mean of 7-mers; reading: higher = stronger binding; quantity: 7-mer Z-score
Target: PABPC1L2, full length, GST fusion (mouse, UniProt A0ABA7IW68)
Target sequence (chain): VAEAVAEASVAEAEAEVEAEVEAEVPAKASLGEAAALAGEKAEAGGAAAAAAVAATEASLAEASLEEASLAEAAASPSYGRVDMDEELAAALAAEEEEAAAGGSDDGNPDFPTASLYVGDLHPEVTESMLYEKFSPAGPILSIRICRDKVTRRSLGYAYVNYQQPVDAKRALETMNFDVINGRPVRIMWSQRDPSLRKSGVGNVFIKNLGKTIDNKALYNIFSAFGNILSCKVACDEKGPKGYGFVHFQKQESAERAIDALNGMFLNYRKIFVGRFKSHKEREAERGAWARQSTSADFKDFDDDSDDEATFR
GGAUCAA: 0.419
GACGCGG: -0.0355
CGGAGUA: 0.0805
ACAUUUA: 0.254
AGAUCUC: -0.298
UAUCUCU: -0.271
GCCCUCC: -0.364
GGUGUAA: 0.291
AUUGCUG: -0.021
CAGGAAU: 0.0261
GAGAUAG: -0.0518
AGGAGUA: 0.0551
CCUUCCA: -0.374
UUUGCUA: -0.298
UUGCAAC: -0.28
AGGAUAG: 0.0152
CAUAUGA: 0.0605
CUUAUAU: -0.242
UUCUGCU: -0.429
UUACGGC: -0.0899
GCUUAAG: -0.242
GACUCUA: -0.209
ACAAUGG: 0.329

Series 3 — technique: universal PBM; form: double-stranded DNA, one strand shown; medium: in vitro; concentration: 600 nM; reading: higher = stronger binding; quantity: E-score
Target: Sal-like protein 4, full length isoform A (SALL4, Homo sapiens, UniProt Q9UJQ4, residues 1-1053)
UniProt Q9UJQ4, sequence (whole entry, looked up): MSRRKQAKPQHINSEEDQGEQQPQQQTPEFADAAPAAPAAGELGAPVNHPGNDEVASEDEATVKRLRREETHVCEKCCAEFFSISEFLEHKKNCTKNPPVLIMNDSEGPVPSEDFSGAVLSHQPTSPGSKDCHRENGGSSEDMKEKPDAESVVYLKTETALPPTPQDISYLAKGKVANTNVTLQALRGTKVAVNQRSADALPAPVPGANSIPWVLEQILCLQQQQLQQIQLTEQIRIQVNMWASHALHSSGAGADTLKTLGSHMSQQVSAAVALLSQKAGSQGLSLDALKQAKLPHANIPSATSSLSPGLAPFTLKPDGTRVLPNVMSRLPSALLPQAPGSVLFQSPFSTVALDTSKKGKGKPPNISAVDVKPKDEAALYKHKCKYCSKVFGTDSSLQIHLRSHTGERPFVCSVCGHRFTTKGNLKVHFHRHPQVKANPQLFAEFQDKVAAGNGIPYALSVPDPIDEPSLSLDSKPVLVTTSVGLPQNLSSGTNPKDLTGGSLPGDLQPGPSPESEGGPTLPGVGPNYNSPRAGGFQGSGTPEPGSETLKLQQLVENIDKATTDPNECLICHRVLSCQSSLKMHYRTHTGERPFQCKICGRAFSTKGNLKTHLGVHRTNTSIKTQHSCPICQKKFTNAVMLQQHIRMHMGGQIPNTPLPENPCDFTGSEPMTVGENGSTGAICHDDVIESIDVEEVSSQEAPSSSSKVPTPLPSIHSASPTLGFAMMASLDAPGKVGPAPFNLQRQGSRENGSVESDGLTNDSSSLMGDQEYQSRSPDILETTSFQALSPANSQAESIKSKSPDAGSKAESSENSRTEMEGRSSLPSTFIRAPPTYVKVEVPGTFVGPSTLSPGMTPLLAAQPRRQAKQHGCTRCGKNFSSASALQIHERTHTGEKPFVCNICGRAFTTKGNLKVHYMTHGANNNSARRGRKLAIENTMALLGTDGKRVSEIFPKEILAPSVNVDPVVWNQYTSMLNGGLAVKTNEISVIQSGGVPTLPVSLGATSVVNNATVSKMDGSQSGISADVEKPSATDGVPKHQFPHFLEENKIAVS
Setting: 8-mer, flanks averaged, mean of replicates
AATCAGGT: 0.193
CTGGTCAC: -0.246
GTAGCGTA: 0.00482
TATAGTCA: 0.27
ATACCTCC: -0.0258
GGATCTTA: -0.08
AATTCTCG: 0.0995
ATATTGTC: 0.331
ATCGGTAG: 0.138
GGCATCTA: -0.015
GTGGAACA: 0.022
CTTTCGTA: 0.12
GAGTGGCC: -0.279
CTAATCAA: 0.189
CCGCACCC: -0.359
AAGCTTGC: -0.089
ATTTGCAA: 0.234
CTGGCCGA: -0.31
AAACCGTC: -0.0876
AAAGGAAT: 0.161
GCCTACGA: -0.0463
CCGAAGGC: -0.227
ACTTCTCA: 0.09
CGGTTCAA: -0.188

Series 4 — technique: RNA Bind-n-Seq; form: RNA; medium: in vitro; concentration: 365 nM; reference: no-protein control; reading: higher = stronger binding; quantity: RBNS enrichment (R)
Target: RNA binding protein fox-1 homolog 2, RRM domain, GST-SBP tag (RBFOX2, Homo sapiens, UniProt O43251-10, residues 100-194)
Setting: natural RNA segment, single round, ends assumed
All sequences stand within: GGGAGUUCUACAGUCCGACGAUC … UGGAAUUCUCGGGUGCCAA
UGUAUGUGUGUGUACAUGCGCAUACAUAGAUAUAUGCACACAUAGAUUAUGUGCUUGACCACUGCCUUUUAAAACUUUAAAUUAAAUAAAACAUUGGGGAUGAUUCAAUU: 0.455
CCUUAUAGGUCCAUGACCUGCUCUGUUCAGAGGCCUCUUGGCAGUGUGGCCUGUUUGUGCUGUCCUGCAUCCAGUGUGUUGGCCUGGCUAAGUGAAAACGGUGAGCUGUU: 0.563
GGGUGGAGUUGGGGGCGCCUUUUGUUGAGGAGGUUGGAAUGUGGGCUCUAGGGCUGUGCACUUUCCACUUUCCGGAGGAAUAGAGUUUUUCUUUUUUUCAACUCUCCAUC: 0.569
ACAGGUGCGUCUGUCUAUAUGUCUGGGUUCUUGUCUUUUGUGGUCUGUUUGUCUUUUCUACCUCUUUCUCUUGCAGUGAUAGACUGAGGGGGUAAAAUCAAGAGAAAAAA: 0.705
UUAAUCAGGAAUAUUGUGGUAAGCUGGGAGUAUCACUCUGGAAGAAAGUAACAUCUCCAGAUGAGAAUUUGAAACAAGAAACAGAGUGUUGUAAAAGGACACCUUCACUG: 0.483
UUUUUUGAUUGUGUUUCGUAAGAGACAACAUGGCCUCCUAAGGUGCAAUCCUGCCGCUAUAGUGAGCUAAUGUCCUGAAUCCAAAGGCUUCAGAAAAUUGCUUUUGCCUU: 0.382
GUGUUUUCUUAAAAAAAAAUCACAGUUACUUCUAAACCAGAUUUCAUUUCUUUUAUUGUUUUAUGUGCCAAACCACGAAGUGCAUUGGGCUUCAAUCUCUGAACACUGUA: 0.596
UCCAGGGUGAUGAGUGUGGACGGGGGCACCAGUCAGUUCUCCCUUGAAGUAAACCUCAGUGCCUGAGACUUUUCUACCAAGCCACACAGCUGCAGCAACUGCAGAUACUG: 0.453

Some of these lines once more (series 2):
ACAAUGG: 0.329
AUUGCUG: -0.021
UUGCAAC: -0.28
GAGAUAG: -0.0518
CCUUCCA: -0.374
GGAUCAA: 0.419
AGGAGUA: 0.0551
